# Published values gathered from unrelated publications.
# Parts stem from different laboratories: compare values within a part only. Positions count from the first letter of the parent shown.

# Block 1
# Target: Interferon regulatory factor 5, full length, phosphomimetic (IRF5, Homo sapiens, UniProt Q13568-2, residues 1-514, K96S/S451D/S453D/S456D/S462D)
# Technique: protein-binding microarray
# Molecule type: double-stranded DNA, one strand shown
# Sample: in vitro
# Concentration: 250 nM
# Notes: 60-bp whole probe
# Together with: salmon DNA 0.4 mg/ml
# Reference: random background probes
# Reading: higher = stronger binding
# All sequences stand within: GCCTAGCAC … GTCTTGATTCGCTTGACGCTGCTG
Oligonucleotide,log fluorescence [z-score]
TTAGATATCCGGTTTCGATTAGTGCTA,7.5
GTAGGTATCGGGTTTCGGTTAGTGCTA,8.17
GACCGTATCGGGACTGGGGACGTGCTA,0.983
GACAGTATCCTTCTCCTGACGTGCTAG,0.426
TTAGGACTGGACTTTCGCTTAGTGCTA,5.64
TTATGTTTCGACTATCGGTTAGTGCTA,9.62
GACGGACGGGACACTGGGGACGTGCTA,-0.947
CTCTGCTTCTGTATGGGCATGTGCTAG,-0.0166
TCAGTTTTCTCATTCGTACTGTGCTAG,1.47
TTAGGACTGCTTCTCCTTTAGTGCTAG,0.101
GACGGTATCGACTTTCAGGACGTGCTA,3.29
GAGGATATCGGGTATCGAGACGTGCTA,1.49
TCATTTTTGTAATCGAAAACTGTGCTA,2.3
GAAGAACTGGGGACTGGAGACGTGCTA,-0.613
TTAGGTATCGGGACTGGTTTAGTGCTA,1.82
TTAGATATCGGGTTTCGACTAGTGCTA,5.42
TTAGGTCTCTTACTGCTTTAGTGCTAG,-0.0341
TTTGATATCAGTCTCGATTAGTGCTAG,3.08
CACCGTCTTATTAAAAAACAGTGCTAG,0.453
TTAGGTATCGACTATAGGTTAGTGCTA,3.39
ACTGTGTTTTGGATGTCAGAGTGCTAG,0.377
TTAGGTCTCCTTTTACTTTAGTGCTAG,0.2
TTAGGTTTCGACTATCGGTGAGTGCTA,8.69
CTCTGGGGCTCCAGGGAGAAGTGCTAG,-0.814
GCCGGTCTCGGTATCGGGACGTGCTAG,1.13

# Block 2
# Target: Ras GTPase-activating protein-binding protein 1, RRM domain (G3BP1, Homo sapiens, UniProt Q13283)
# UniProt Q13283, sequence (whole entry, looked up): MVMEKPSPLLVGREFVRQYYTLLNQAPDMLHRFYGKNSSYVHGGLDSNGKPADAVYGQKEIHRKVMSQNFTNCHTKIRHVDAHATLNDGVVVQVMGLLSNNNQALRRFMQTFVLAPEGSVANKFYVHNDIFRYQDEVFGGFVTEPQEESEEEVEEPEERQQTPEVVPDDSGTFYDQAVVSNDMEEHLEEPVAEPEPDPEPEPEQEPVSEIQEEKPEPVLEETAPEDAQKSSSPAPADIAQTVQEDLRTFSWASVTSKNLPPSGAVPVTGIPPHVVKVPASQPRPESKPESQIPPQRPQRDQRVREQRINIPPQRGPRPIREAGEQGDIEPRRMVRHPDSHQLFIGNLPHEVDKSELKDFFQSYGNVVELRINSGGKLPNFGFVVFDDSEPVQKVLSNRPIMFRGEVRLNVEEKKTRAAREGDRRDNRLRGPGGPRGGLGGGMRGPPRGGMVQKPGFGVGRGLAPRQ
# Technique: RNA Bind-n-Seq
# Molecule type: RNA
# Sample: in vitro
# Concentration: 1 µM
# Notes: whole 134-nt RNA, ends assumed
# Together with: 150 mM KCl
# Reference: input library
# Reading: higher = stronger binding
# All sequences stand within: GGGAGUUCUACAGUCCGACGAUC … UGGAAUUCUCGGGUGUCAAGG
Oligonucleotide,log2 enrichment
AGUCCUGUGCUACACAUCGUAUGUACCGAAUCGGGAAAAAGGAAAAAGGGAAAAAGGGAAAGUAUUAUGUUACGCCGUUCGGAUCUGCAC,-0.0709
CAAGUCCUGUGCUACACAUCGUAUGUACCGAAUCGGGGAAAGGGGUGGGGAGGGGAAAGUAUUAUGUUACGCCGUUCGGAUCUGCACUUC,0.988
CAAGUCCUGUGCUACACAUCGUAUGUACCGAAUCGGAAAAAAAGGAAAAAGGAGGAAAGUAUUAUGUUACGCCGUUCGGAUCUGCACUUC,-0.122
CACAGACAACACGCACCCACACAGACACAGAGGGAAGCGGUUGGGAUGGGGACAGGGUGCACAGCAGGGCGGGGUAGGACCCCAGCCCCU,-0.137
UGGGAGGUGGAUUUUGUUUAUUUUUUUAGCUCAUUUCCAGGGGUGGGAAGUUUUUUUUAAUAUGUGUCAUGAAUAAAGUUGUUUUUGAAA,2.39
CCUGUGCUACACAUCGUAUGUACCGAAUCGGGGUUUUUUUGGGGAAAAAGGGGAAAGGGGAAAGUAUUAUGUUACGCCGUUCGGAUCUGC,0.158
ACCAUGCAGGUGGGAAUCUUUGGGAAGUGGGGCAAGGGGGGGAUAGGGAGGGGGGUAACACUUUGGGAACAGGUGGUCCCAGGUCGUUUC,-0.457
GGGGGUGACCGCCGGAGCGCGGCGUGAGCCCUCCCCCUUGGGAUCCCGCAGCUGACCAGUCGCGCUGACGGACAGACAGACAGACACCGC,-0.673
UGUGCUACACAUCGUAUGUACCGAAUCGGGGCCCCCCCGGGCCCCCCCGGGCCCCCCCGGGGAAAGUAUUAUGUUACGCCGUUCGGAUCU,-0.71
CAAGUCCUGUGCUACACAUCGUAUGUACCGAAUCGGGAAAGGAAAGGGGAAAGGGGAAAGUAUUAUGUUACGCCGUUCGGAUCUGCACUU,0.219
UAACUUUAGAGGAGGAUCUGAUGGAUAUGGCAGUGGACGUGCAUUUGGGGAUGGCUAUAAUGGGUAUGGAGGAGGACCUGGAGGUGGCAA,-0.584
UAACUUUAGAGGAGGAUCUGAUGGAUAUGGCAGUGGACGUGGAUUUGGGGAUGGCUAUAAUGGGUAUGGAGGAGGACCUGGAGAUGGCAA,-0.446
CUCAAGUCCUGUGCUACACAUCGUAUGUACCGAAUCGGGGUGGGGUGGUGGGGAAAGUAUUAUGUUACGCCGUUCGGAUCUGCACUUCCA,0.246
UAACUUUAGAGGAGGAUCUGAUGGAUAUGGCAGUGGACGUGAAUUUGGGGAUGGCUAUAAUGGGUAUGGAGGAGGACCUGGAGGUGGCAA,-0.406

# Block 3
# Target: ABI1, truncated, D143A, DHFR fusion (Arabidopsis thaliana)
# Technique: DHFR PCA, deep sequencing
# Sample: yeast
# Notes: methotrexate growth selection, single substitutions
# Together with: (+)-ABA 710 µM
# Reference: wild-type fitted maximum
# Reading: higher = stronger binding
# Parent: PYL1, truncated, DHFR fusion (Arabidopsis thaliana); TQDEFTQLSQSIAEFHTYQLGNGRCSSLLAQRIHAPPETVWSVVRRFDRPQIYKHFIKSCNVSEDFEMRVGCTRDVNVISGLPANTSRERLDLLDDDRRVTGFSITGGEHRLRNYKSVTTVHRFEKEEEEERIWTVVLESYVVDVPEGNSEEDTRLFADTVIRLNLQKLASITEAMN
Variant,relative binding score [%]
V62R,79.5
T1Y,98
W41Y,79.3
G108C,54.6
E174M,92.1
A30E,104
N177K,97.7
C25V,106
T17A,93.4
V121D,8.77
E89T,17.5
S42I,85.4
F47D,-13.5
I12M,97.6
L29T,86
S26F,94.8

# Block 4
# Target: RING finger protein unkempt homolog, zinc fingers 1-6, GST-SBP tag (UNK, Homo sapiens, UniProt Q9C0B0, residues 30-357)
# UniProt Q9C0B0, sequence (30-357, looked up): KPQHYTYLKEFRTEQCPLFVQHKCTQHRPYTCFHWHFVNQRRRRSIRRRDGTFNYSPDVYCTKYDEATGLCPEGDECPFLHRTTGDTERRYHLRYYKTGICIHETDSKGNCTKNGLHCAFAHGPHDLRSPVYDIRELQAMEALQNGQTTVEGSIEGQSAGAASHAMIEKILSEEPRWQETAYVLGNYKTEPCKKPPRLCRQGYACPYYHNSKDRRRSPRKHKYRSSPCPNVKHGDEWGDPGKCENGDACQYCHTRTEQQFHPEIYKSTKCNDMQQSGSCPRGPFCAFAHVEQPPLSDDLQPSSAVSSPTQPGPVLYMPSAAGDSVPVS
# Technique: RNA Bind-n-Seq
# Molecule type: RNA
# Sample: in vitro
# Concentration: not given
# Notes: RNA with constant flanks, ends assumed
# Reference: input RNA pool
# Reading: higher = stronger binding
# All sequences stand within: GGGAGUUCUACAGUCCGACGAUC … CAACAGAGGAUUGAGCAUCA
Oligonucleotide,bound/input enrichment
UAUGUUUACGGAGUCCUGUUUAGUUUGGCAGAAAGCAGAAAGAAAACUGAGAGACUUGCUUUCCGAAAGAACAGACUUCCACCAGAAUUCUCGCCACUGAUCAUUAAGGAGUGGGCAGCU,0.216 ratio
UCGGAGCUAUGCGGUGGUGCUAGAAUUUGUUAUAUUUUCCAUGAGACUUUUGGGCGAACCUCCGAAUCUGUUGAUCCACUUGGUGGCCUUAACACUAUUGACAUUUUGACUGCCAUUAGA,1.27 ratio
AGGUUACUUAUGCAUCAUAUCAGAGAUUGUUUACCAGAGCUGAAAACAAGAAUAAAUGUCUCCGCUGCUCAGUAUCAGUCUCUUCUAAAUAGCUAUGGUGAACCGGUGGAUGAUAAAAGU,0.107 ratio
CAAUUAUCUCAUGAUGUACGUCAGGCCUUUCCAGUUAUUCCAAACAAUACAAAGUGACAAUACCGUUGGCUUCUAACUAUAGUACAAAUUUGAUUACAGUUAAUAUACUUAAGAUAUUAC,1.58 ratio
AAACACCCUUUGUAUUCCAAAAUAGGGUCUCAAAACAUUUUGUAAUUUUCAUUUAAAUUGUCCGGAGGCUUGGAGCUAUUAGUUAAUCUAUCUUCCAAUACUGUUUAAUAUAGCACUGAA,2.05 ratio
UGCCUCUCAUUCAAUCCCUACAGCGAGUUCAUUCUGGCAACUGGCUCUGCAGAUAAGACUGCCGCUUUAUGGGACCUGCGUAAUCUGAAACUAAAACUCCACACCUUUGAAUCGCAUAAG,0.214 ratio
ACCCUCUCUGGGGUUCAAGAAGAGUCCGCUCUUUGCUAUCUUCUCCAGGUUGAUGAGUUCCGGUUUUUGUUGGACUGUGGCUGGGAUGAACACUUCUCUGUGGACAUUAUUGAUUCCCUG,0.117 ratio
UUUCAGCAACUGGUCAAUUUUUCAGAAGGAGGACCAGGCUCUAAUUCUACUGGCAGUGAAGCCGCAUCGAUGUCCUCGCAGCUCCCAGAUACACCCAACAGCAUGGUAGCCAGUCCUAUU,0.129 ratio
CUCCAGAAAGAAAACAAAAUUAAUGCCUUGCAUCCUGGAAGUUCAUUUAGGAAUCUGAAAUCCGGGACUUCUUUAAAAUUUGGACAUGGCUAAUCGAGGAGCAACAAGACCCAACGGGCC,0.411 ratio
GAUACUGGCAAACUGACCGGUGGAUCAUUUACCAUGAAAUACCAUGAUAUGCCUGACGUCACCGAUUUUCUAGUCUUGAGACAACAAUUUGAUGAUGCAAAGUAUAGACGAUGGAAUAUA,0.243 ratio
AUGAAAAGACUGUGACCUCCUCUGGGGUUUGGUGGCAAGUCUGGGCUGGCAGAGAUGGGACCGCUUCAGGUUUUGCACCGGCACUUUGAUGACACUCUCCUCUGGUGAUGUUUUAUUUAC,0.388 ratio

# Block 5
# Target: CCNA2, cyclin fold, Cln2 fusion (human)
# Technique: yeast growth competition, sequencing
# Sample: yeast
# Notes: weak parent motif
# Reference: not given
# Reading: higher = stronger binding
# Parent: HIRA docking peptide (human); SLSKRKLELEVET
Variant,normalised enrichment score
K6A,0.322
E8A,0.49
S3A,1.51
E10A,-0.0652
V11A,-0.115
R5A L7A,0.164
R5K,0.392
L9F,4
E12A,0.298
L9A,-0.265

# Some of these lines once more (block 3):
Variant,relative binding score [%]
I12M,97.6
C25V,106
E174M,92.1
A30E,104
W41Y,79.3
S42I,85.4
